Measured values from different studies.
Each line is one published result; not all experiments were run side by side. Values joined by “and” are separate records of one study, mostly repeats; a detail may differ.
MAPK3: Mitogen-activated protein kinase 3 (MAPK3, Homo sapiens, UniProt P27361)
Sequence of UniProt P27361 (whole entry, looked up): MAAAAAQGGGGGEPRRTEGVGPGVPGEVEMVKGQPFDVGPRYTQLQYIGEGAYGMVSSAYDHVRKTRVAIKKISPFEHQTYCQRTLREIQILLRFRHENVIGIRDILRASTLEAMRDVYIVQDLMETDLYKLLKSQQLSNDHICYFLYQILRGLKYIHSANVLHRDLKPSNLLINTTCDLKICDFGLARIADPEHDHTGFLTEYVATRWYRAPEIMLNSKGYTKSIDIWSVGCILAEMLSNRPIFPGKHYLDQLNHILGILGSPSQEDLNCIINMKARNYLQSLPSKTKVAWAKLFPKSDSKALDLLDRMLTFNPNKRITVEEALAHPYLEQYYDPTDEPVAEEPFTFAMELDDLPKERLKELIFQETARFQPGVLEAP
MAPK3 with MyD88: Mitogen-activated protein kinase 3, with MyD88 (MAPK3, Homo sapiens, UniProt P27361)

Compound | target | assay | test system | setting | scale | quantity | value
C=C1CCCCCCCCCC(CO)C1=O (centres unmarked) | MAPK3 | cell-free assay, competition with immobilised ligand |  | 10 µM |  | remaining binding | 100%
CS(=O)(=O)Nc1cccc(-c2csc3cnc(Nc4ccc(N5CCN(CCCCCOc6cccc7c6C(=O)N(C6CCC(=O)NC6=O)C7=O)CC5)cc4)nc23)c1 (centres unmarked) | MAPK3 | probe labelling, inhibitor, KiNativ chemoproteomics | MOLT-4 | 1 µM |  | inhibition | -19.6%
CNS(=O)(=O)Nc1nccc(Cc2c(C)c3ccc(Oc4ncccc4F)cc3oc2=O)c1F | MAPK3 | binding, competition with immobilised ligand |  | 10 µM |  | remaining binding | 83%
C[C@H]1CN(C(=O)c2cn(-c3ccnc(N)n3)c3cc(C#CC4(O)CCCCC4)ccc23)CCN1 | MAPK3 | enzyme activity, inhibitor, FRET |  | 1 µM |  | inhibition | 4%
CN1CCN(Cc2ccc(-c3ccc(CO[C@H]4CCC[C@@H]4NC(=O)c4cc(-c5cnn(C)c5)cnc4N)cc3)cc2)CC1 | MAPK3 | enzyme activity, inhibitor |  | 0.1 µM |  | inhibition | 4%
CN(C)c1ccc(-c2nc3cc(C(=O)Nc4ccc(O)nc4)ccc3[nH]2)cc1 | MAPK3 with MyD88 | ERK1-MYD88 interaction, HTRF |  | concentration not given |  | inhibition | 26.5%
C=CC(=O)N1CCc2ccc(-n3c(=O)ccc4cnc5ccc(-c6cnn(C)c6)cc5c43)cc21 | MAPK3 | KINOMEscan |  | 1 µM | relative to: DMSO control | remaining binding | 100%
CN1CCN(Cc2ccc(NC(=O)c3cccc(C#Cc4cnc(N)c5ncccc45)c3)cc2C(F)(F)F)CC1 | MAPK3 | cell-free assay, competition with immobilised ligand |  | 50 nM |  | remaining binding | 92%
Cc1cnc2nc1Nc1cccc(c1)COC/C=C/COCc1cc(ccc1OCCN1CCOCC1)N2 | MAPK3 | binding, competition with immobilised ligand |  | 0.1 µM |  | remaining binding | 93%
CNC1C[S+]2CC[S+]3CC[S+](C1)[Ru-4]321([N]=C=S)[n]2c3ccc(OC)cc3c3c4c(c5cc(F)c[n+]1c5c32)C(=O)NC4=O (centres unmarked) | MAPK3 | KinomeScan |  | 0.1 µM | relative to: untreated | remaining binding | 100%
Cc1cccc(O[C@H]2CCC[C@@H](C(C)CNCc3ccncc3)C2)c1 (relative stereo) | MAPK3 | enzyme activity, inhibitor |  | 1 µM |  | inhibition | -3%
CN(C)c1ccc(-c2nc3cc(C(=O)Nc4ccc(Cl)cc4)ccc3[nH]2)cc1 | MAPK3 with MyD88 | ERK1-MYD88 interaction, HTRF |  | concentration not given |  | inhibition | 81%
C=CC(=O)Nc1cccc(-c2cnc3[nH]cc(C(=O)NC(C)(C)C)c3n2)c1 | MAPK3 | kinase activity |  | 0.1 µM |  | inhibition | 3% and 1%
CCn1cc(C(=O)O)c(=O)c2c(N)c(F)c(NC3CCCCC3)cc21 | MAPK3 | kinase activity |  | 0.1 µM, together with: ATP at Km |  | inhibition | 5.9%
Cc1cccc(-c2ccc3nc(NC(=O)C4CCOCC4)nn3c2)c1 | MAPK3 | enzyme activity, Dundee kinase panel |  | 10 µM |  | remaining activity | 92%
COc1ccc(NC(=O)Nc2ccc3c(c2)C(=O)N(C(C)CO)CC(C)C(CN(C)Cc2ccc4c(c2)OCO4)O3)cc1 (centres unmarked) | MAPK3 | binding, competition with immobilised ligand |  | 10 µM |  | remaining binding | 92%
NC(=O)[C@@H](O)C[C@H]1CCc2sc3ncnc(O[C@H]4CC[C@H](N5CCOCC5)CC4)c3c21 | MAPK3 | enzyme activity, inhibitor |  | 10 µM |  | inhibition | 4%
Cc1cccc(-c2ccc3nc(NC(=O)C4CCCCC4)nn3c2)c1 | MAPK3 | enzyme activity, Dundee kinase panel |  | 10 µM |  | remaining activity | 96%
CC(=O)N1c2ccc(-c3ccc(CNC(=O)c4cn5cc(-c6cnc(N)nc6)nc(N6CCOCC6)c5n4)cc3)cc2CC[C@@H]1C | MAPK3 | KINOMEscan |  | 10 µM |  | remaining binding | 99%
Nc1ncc(-c2cc(-c3cnn(CC(F)(F)F)c3)ncc2F)nc1C(=O)NC1CNCC(F)C1 (centres unmarked) | MAPK3 | enzyme activity |  | 1 µM | relative to: DMSO control | remaining activity | 98.8%

Some of these lines once more:
Compound | target | assay | test system | setting | scale | quantity | value
CS(=O)(=O)Nc1cccc(-c2csc3cnc(Nc4ccc(N5CCN(CCCCCOc6cccc7c6C(=O)N(C6CCC(=O)NC6=O)C7=O)CC5)cc4)nc23)c1 (centres unmarked) | MAPK3 | probe labelling, inhibitor, KiNativ chemoproteomics | MOLT-4 | 1 µM |  | inhibition | -19.6%
